Assay results from different studies.
Values joined by “and” are separate records of one study, mostly repeats; a detail may differ. ± gives the spread as reported.
Oprd1: Delta-type opioid receptor (Oprd1, Rattus norvegicus, UniProt P33533)
Chain of UniProt Q00987 (whole entry, looked up): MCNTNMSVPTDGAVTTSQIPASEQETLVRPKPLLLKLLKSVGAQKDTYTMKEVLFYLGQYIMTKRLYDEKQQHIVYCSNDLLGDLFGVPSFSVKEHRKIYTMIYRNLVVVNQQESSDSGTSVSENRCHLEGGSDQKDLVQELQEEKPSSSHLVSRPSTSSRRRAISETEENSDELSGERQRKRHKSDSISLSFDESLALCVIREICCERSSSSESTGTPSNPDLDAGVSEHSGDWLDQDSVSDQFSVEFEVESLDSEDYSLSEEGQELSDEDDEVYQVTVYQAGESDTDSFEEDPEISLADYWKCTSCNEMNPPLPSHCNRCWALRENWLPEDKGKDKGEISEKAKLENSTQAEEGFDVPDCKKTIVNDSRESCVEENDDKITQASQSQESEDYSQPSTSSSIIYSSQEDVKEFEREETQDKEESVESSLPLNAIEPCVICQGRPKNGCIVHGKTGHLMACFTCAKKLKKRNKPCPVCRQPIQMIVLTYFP
Chain of UniProt P33533 (whole entry, looked up): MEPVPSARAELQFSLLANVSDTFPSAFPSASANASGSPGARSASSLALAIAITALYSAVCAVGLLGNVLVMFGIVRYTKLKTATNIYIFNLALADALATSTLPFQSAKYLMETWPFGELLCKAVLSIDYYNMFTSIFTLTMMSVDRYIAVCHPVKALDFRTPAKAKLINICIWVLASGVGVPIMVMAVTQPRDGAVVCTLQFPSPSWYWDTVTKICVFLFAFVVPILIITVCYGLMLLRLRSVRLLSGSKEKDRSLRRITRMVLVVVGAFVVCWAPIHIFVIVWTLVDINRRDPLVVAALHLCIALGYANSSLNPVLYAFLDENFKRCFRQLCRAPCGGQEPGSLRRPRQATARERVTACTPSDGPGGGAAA
Chain of UniProt O08914 (whole entry, looked up): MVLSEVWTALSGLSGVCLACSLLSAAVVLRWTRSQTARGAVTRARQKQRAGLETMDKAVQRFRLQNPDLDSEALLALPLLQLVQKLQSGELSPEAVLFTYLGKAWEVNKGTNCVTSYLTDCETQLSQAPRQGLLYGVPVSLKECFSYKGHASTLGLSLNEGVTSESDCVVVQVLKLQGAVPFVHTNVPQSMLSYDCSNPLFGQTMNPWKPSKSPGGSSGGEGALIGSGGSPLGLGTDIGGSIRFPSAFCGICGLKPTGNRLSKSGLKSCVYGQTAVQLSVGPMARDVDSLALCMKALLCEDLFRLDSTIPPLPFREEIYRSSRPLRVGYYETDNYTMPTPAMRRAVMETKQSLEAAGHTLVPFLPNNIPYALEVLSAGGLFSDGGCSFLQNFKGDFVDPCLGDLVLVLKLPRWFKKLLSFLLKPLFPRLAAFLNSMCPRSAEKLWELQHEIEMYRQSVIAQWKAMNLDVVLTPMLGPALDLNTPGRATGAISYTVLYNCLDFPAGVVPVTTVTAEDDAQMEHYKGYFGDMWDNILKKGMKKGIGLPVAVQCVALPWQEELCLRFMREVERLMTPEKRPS
Chain of UniProt A5GZW8 (whole entry, looked up): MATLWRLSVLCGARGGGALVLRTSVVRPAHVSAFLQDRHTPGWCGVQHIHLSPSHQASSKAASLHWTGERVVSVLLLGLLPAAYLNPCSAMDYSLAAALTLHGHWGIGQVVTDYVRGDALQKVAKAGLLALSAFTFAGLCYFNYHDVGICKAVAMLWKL
Chain of UniProt Q007T0 (whole entry, looked up): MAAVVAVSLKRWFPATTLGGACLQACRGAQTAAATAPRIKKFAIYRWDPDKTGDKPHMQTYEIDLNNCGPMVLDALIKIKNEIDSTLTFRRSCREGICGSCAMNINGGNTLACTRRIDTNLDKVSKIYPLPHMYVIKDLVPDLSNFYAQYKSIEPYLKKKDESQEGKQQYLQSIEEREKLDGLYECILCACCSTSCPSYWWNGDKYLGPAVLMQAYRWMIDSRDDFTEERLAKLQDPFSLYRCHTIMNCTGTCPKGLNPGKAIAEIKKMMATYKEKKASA
Chain of UniProt D0VWV4 (whole entry, looked up): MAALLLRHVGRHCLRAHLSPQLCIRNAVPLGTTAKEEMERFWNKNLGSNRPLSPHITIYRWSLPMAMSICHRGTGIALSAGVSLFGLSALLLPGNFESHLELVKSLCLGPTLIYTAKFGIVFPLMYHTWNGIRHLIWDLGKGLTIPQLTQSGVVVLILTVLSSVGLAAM
Chain of UniProt Q9UH17 (whole entry, looked up): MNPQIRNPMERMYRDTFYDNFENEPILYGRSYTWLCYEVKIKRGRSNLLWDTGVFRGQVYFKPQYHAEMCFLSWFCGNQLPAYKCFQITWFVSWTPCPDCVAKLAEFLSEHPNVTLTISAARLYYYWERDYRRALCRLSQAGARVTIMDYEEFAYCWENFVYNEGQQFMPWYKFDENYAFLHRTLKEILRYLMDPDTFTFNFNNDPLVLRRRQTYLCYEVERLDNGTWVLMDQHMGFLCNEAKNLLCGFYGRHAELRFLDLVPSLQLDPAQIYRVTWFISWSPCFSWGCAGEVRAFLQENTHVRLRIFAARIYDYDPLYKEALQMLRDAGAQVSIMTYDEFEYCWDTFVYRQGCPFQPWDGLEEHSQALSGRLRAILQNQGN
Chain of UniProt P07332 (whole entry, looked up): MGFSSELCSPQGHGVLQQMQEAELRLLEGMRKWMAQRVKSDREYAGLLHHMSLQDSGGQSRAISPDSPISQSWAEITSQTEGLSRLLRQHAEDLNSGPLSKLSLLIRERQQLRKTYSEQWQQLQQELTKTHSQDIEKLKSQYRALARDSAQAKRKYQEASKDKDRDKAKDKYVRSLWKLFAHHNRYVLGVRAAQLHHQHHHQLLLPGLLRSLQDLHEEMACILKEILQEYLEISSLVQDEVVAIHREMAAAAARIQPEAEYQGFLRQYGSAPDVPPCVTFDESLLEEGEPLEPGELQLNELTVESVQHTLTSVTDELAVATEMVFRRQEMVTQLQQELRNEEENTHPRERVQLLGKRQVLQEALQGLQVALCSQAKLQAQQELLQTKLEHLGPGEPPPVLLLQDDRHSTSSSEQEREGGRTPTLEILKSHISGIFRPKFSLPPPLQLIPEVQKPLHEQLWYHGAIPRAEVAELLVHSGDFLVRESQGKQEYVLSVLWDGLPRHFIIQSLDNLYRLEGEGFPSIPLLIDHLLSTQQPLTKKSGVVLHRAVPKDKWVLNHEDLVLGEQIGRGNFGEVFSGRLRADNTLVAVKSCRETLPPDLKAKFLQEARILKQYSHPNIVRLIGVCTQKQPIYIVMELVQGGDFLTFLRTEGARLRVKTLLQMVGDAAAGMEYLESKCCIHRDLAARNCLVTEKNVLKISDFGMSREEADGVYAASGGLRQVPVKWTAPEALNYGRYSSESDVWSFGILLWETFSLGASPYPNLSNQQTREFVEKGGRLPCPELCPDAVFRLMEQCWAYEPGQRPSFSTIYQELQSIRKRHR
Chain of UniProt P38489 (whole entry, looked up): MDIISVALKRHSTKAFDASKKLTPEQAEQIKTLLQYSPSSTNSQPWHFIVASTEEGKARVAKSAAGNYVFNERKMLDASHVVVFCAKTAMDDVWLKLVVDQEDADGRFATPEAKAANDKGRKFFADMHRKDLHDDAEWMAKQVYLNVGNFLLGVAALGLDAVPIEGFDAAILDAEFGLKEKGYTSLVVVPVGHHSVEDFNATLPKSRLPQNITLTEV
Chain of UniProt Q13464 (whole entry, looked up): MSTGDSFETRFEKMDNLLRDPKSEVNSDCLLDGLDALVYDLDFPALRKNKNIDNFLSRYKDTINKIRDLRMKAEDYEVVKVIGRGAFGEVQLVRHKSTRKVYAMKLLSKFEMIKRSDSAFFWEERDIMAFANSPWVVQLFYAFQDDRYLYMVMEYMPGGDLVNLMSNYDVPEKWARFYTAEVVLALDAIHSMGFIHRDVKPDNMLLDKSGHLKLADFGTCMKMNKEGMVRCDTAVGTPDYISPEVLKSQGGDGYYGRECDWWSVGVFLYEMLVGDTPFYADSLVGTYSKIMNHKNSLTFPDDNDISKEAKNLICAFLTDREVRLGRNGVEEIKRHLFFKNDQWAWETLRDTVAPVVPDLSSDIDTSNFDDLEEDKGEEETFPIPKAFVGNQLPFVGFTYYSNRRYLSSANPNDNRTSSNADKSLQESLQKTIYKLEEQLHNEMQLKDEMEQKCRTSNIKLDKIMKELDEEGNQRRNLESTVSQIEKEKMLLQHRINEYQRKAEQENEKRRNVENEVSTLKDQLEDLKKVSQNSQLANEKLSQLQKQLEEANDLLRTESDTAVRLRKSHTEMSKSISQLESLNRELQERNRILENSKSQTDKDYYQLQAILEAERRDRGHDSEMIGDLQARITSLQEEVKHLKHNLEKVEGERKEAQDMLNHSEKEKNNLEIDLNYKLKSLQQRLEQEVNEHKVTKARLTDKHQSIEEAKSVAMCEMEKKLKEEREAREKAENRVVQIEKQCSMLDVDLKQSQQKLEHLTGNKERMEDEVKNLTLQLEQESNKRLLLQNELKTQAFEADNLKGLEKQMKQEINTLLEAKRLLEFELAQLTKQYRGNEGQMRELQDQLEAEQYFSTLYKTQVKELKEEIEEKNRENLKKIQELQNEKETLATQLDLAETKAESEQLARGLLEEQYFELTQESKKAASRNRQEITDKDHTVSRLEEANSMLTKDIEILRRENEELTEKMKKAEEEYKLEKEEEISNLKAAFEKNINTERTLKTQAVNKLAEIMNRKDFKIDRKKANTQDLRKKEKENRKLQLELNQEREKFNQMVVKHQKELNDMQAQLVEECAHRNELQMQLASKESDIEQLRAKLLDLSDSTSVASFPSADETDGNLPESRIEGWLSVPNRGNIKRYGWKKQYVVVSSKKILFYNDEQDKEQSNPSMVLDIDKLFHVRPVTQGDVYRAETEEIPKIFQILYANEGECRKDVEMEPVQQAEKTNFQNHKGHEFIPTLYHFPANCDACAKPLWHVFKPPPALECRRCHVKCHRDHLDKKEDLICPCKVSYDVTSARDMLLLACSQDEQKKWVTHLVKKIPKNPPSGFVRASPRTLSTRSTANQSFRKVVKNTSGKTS

With `CCCC[C@H]1CNCCN1C[C@@H]1CCCN1C[C@@H](Cc1ccc2ccccc2c1)N1CCN(CCC23CC4CC(CC(C4)C2)C3)[C@H](Cc2ccc(O)cc2)C1` the remaining binding was 90.6% (Oprd1; radioligand binding; rat brain membranes; 500 nM, pH 7.5, 25 °C, added: 2 nM [3H]DPDPE).
`COc1c(N2CC3CCCN(C(=O)OCc4cnc([N+](=O)[O-])s4)C3C2)c(F)cc2c(=O)c(C(=O)O)cn(C3CC3)c12` (centres unmarked) has an initial rate of 3.28 ± 1.14 µM/min (Oxygen-insensitive NAD(P)H nitroreductase (nfsB, Escherichia coli K-12, UniProt P38489); substrate; added: NADH 100 µM).
The Hill coefficient of `CCCCC/C=C\C/C=C\C/C=C\C/C=C\CCCC(=O)NCCc1ccc(O)c(O)c1` is reported as 1.61 ± 0.38 (Transient receptor potential cation channel subfamily V member 1 (Trpv1, Mus musculus, UniProt Q704Y3, N552Q); ion current, agonist, whole-cell patch clamp; N552Q).
`CN(C)[C@H]1C[C@@]23CC[C@@]4(O2)C(=CC[C@]2(C)[C@@H](c5ccc6ccncc6c5)CC[C@H]24)C=C3[C@@H](O)[C@@H]1O` gave an inhibition of 3% (Dual specificity mitogen-activated protein kinase kinase 3 (MAP2K3, Homo sapiens, UniProt P46734); ATP probe labelling, inhibitor, KiNativ profiling; 0.1 µM).
`CCCO[C@H]1[C@H](O)[C@@H](N)[C@@H](O[C@H]2[C@H](O[C@@H]3O[C@H](CO)[C@@H](O[C@H]4O[C@@H](CN)[C@@H](O)[C@H](O)[C@H]4N)[C@H]3O)[C@@H](O)[C@H](N)C[C@@H]2N)O[C@@H]1CO` has a specific binding of 3% (Histamine H1 receptor (HRH1, Homo sapiens, UniProt P35367); radioligand binding; 10 µM, 1% DMSO).
For `CC(C)[C@H]1NC(=O)C[C@H]2/C=C/CCSSC[C@@H](NC1=O)C(=O)N[C@H](Cc1cccc3ccccc13)C(=O)NCC(=O)O2`, the inhibition was 2.1% (Tyrosine-protein kinase Fes/Fps (FES, Homo sapiens, UniProt P07332); enzyme activity, inhibitor; 10 µM).
With `CCOC(=O)[C@@H]1Cc2c(cc([N+](=O)[O-])cc2[N+](=O)[O-])[C@H](O)[C@]12C(=O)Nc1ccc(Br)cc12` the remaining binding was 53% (Tyrosine-protein kinase receptor UFO (AXL, Homo sapiens, UniProt P30530); binding, competition with immobilised ligand; 0.1 µM).
`N[C@H](C(=O)N1CCCC1)C1CCN(c2nccc3c(-c4ncc(Cl)cc4Cl)cccc23)CC1` has a response of 1% (Gastrin/cholecystokinin type B receptor (CCKBR, Homo sapiens, UniProt P32239); functional response, agonist; 10 µM).
`C[C@@H](O)[C@@H]1CN([C@H](Cc2ccc3ccccc3c2)CN2CCC[C@H]2CN2CCNC[C@@H]2CO)CCN1CCC12CC3CC(CC(C3)C1)C2` gave a remaining binding of 93% (Oprd1; radioligand binding; rat brain membranes; 500 nM, pH 7.5, 25 °C, added: 2 nM [3H]DPDPE).
`CON(C(=O)c1cn(C)nc1C(F)F)C(C)Cc1c(Cl)cc(Cl)cc1Cl` (centres unmarked) has a reaction velocity of 0.00203 µM/s and 0.00195 µM/s (SDHD/SDHC/SDHB (Sus scrofa, UniProt A5GZW8+D0VWV4+Q007T0); enzyme activity, inhibitor, DCIP reduction; pig; 1 µM, added: DCIP 20 µM).
The labelling concentration of `C#Cc1cc(/C=N/NC(=O)CCl)c2nccn2c1` is reported as 0.1 to 0.5 µM (Ribosomal protein S6 kinase alpha-1 (RPS6KA1, Homo sapiens, UniProt Q15418); cysteine labelling, gel-based live-cell labelling; HEK-293T; strong ligand-dependent labelling).
`C#CCCCCOc1ccc2c(c1)CCCN2C(=O)CCl` has a reactivity ratio of 1.42 (Claudin-1 (CLDN1, Homo sapiens, UniProt O95832); mass spectrometry profiling, item: CLDN1; H460 cell lysate; 100 µM over 10 µM, UniProt O95832; baseline: high over low concentration).
`CC(=O)N[C@H](C(=O)N[C@@H](CCCNC(=N)N)C(=O)NCC(=O)N[C@@H](CO)C(=O)N[C@@H](CS)C(=O)N[C@@H](CCCNC(=N)N)C(=O)N[C@@H](CCCCN)C(=O)N[C@@H](CCCNC(=N)N)C(=O)N[C@@H](CC(N)=O)C(=O)N[C@@H](CCCNC(=N)N)C(=O)N[C@@H](CO)C(=O)N1CCC[C@H]1C(=O)N[C@@H](CCC(=O)O)C(=O)N[C@@H](CCCNC(=N)N)C(N)=O)[C@@H](C)O` has a binding stoichiometry of 2.14 (WD repeat-containing protein 5 (WDR5, Homo sapiens, UniProt P61964); isothermal titration calorimetry; concentration not given, pH 7.0, 20 °C).
With `CC[C@H](C)[C@@H]1NC(=O)[C@H](CC(C)C)NC(=O)CNC(=O)[C@H](CCCNC(=N)N)NC(=O)[C@H](Cc2c[nH]c3ccccc23)NC(=O)[C@H](CCSC)NC(=O)[C@H](CO)NC(=O)[C@H](CCC(=O)O)NC(=O)[C@H](Cc2ccccc2)NC(=O)[C@H](CC(=O)O)NC(=O)[C@H]([C@@H](C)O)NC(=O)CNC(=O)[C@H](CCC(=O)O)NC(=O)[C@H]([C@@H](C)O)NC(=O)CNC(=O)[C@H](CC(=O)O)NC1=O` the AlphaLISA signal was 8260 a.u. and 7980 a.u. and 7740 a.u. (E3 ubiquitin-protein ligase Mdm2 (MDM2, Homo sapiens, UniProt Q00987); MDM2-ligand binding, inhibitor, AlphaLISA competition; 0.1953 µM, added: GST-tagged MDM2 ligand; lower = stronger inhibition).
`Cc1ncc([N+](=O)[O-])n1CC(O)Cn1cc(CO[C@]2(C(=O)O)C[C@H](O)[C@@H](NC(=O)CF)[C@H]([C@H](O)[C@H](O)CNC(=O)c3ccc(Oc4ccccc4)cc3)O2)nn1` (some centres unmarked) has a binding stoichiometry of 1.48 ± 0.01 (B-cell receptor CD22 (CD22, Homo sapiens, UniProt P20273); isothermal titration calorimetry; concentration not given).
`COCC1CCCCN1C(=O)n1cc(C(O)(c2ccccc2)c2ccccc2)nn1` (centres unmarked) — result for “SILAC activity ratio”: 1.08 (Acyl-coenzyme A thioesterase 2, mitochondrial (Acot2, Mus musculus, UniProt Q9QYR9); probe labelling, inhibitor, competitive ABPP-SILAC, item: Acot2; mouse T cells; concentration not given, 4 h, protein level; baseline: treated over DMSO cells, lower = stronger inhibition).
`CC#CC(=O)NC[C@H](NC(=O)[C@H](CC1CCCCC1)NC(=O)[C@H](CCC(N)=O)NC(C)=O)C(=O)N[C@@H](CC(C)C)C(=O)N[C@@H](Cc1ccccc1)C(=O)O` gave a ΔH of -9.7 kcal/mol (Beta sliding clamp (Escherichia coli, UniProt P0A988, H175G); isothermal titration calorimetry; 25 °C).
For `O=C1NC(=O)c2c1c1cc(F)c[n+]3c1c1c2c2cc(O)ccc2[n]1[Ru-4]312([N]=C=S)[S+]3CC[S+]1CC[S+]2CC3` (centres unmarked), the remaining activity was 98% (Rho-associated protein kinase 1 (ROCK1, Homo sapiens, UniProt Q13464); enzyme activity; 100 nM, human enzyme, added: 10 µM ATP; baseline: untreated).
`CC[C@H](C)[C@@H]1NC(=O)[C@H](CC(N)=O)NC(=O)[C@@H]2CCCN2C(=O)[C@@H](NC(=O)[C@H](CC(N)=O)NC(=O)[C@@H](N)CCC(N)=O)COC(=O)[C@H](CCSC)NC(=O)[C@H](Cc2c[nH]c3ccccc23)NC(=O)CN(CCC(N)=O)C(=O)CNC(=O)[C@H](Cc2ccccc2)NC1=O` — result for activity: “inactive” (Fsr quorum sensing protein (Enterococcus faecalis, UniProt A0ACD6TCR9); cell-based activity; concentration not given).
Under “reaction rate reduction”, `N[C@@H](Cc1ccccc1)P(=O)(O)O` is recorded as 30% (Phenylalanine/tyrosine ammonia-lyase (PAL, Rhodotorula toruloides, UniProt P11544); inhibitor; 200 µM, added: L-Phe 5 mM).
`CCCc1cc2cc(-n3nc(CO)c4c3CC(C)(C)CC4=O)cc(N3CCC(O)CC3)c2c(=O)[nH]1` has a selectivity ratio of roughly 20 fold (Heat shock protein HSP 90-beta (HSP90AB1, Homo sapiens, UniProt P08238); fluorescence polarization; baseline: apparent KD Hsp90α over apparent KD HSP90AB1).
`CN(C)CCCSC(=S)N1CCN(C(=O)/C=C/c2coc3ccccc3c2=O)CC1` has an MST response of 838 a.u. (Nucleoprotein (N, Tomato spotted wilt virus, UniProt P25999, Y184A); binding, microscale thermophoresis; 3.906 µM; dose series).
The adducted protein of `C=CC(=O)Nc1cc(-c2ccc(C(=O)N3CCCC(O)(CC)C3)cc2)ccc1F` (centres unmarked) is reported as 64% (DNA dC->dU-editing enzyme APOBEC-3B, C-terminal domain (Homo sapiens, UniProt Q9UH17); covalent adduct, intact protein MS; 5 h, 10-fold excess, 250 µM).
`CCCC[C@H]1CNCCN1C[C@@H]1CCCN1C[C@H](CC1CCCCC1)N1CCN(CCc2ccc(Cl)c(Cl)c2)[C@H]([C@@H](C)O)C1` gave a remaining binding of 90.9% (Oprd1; radioligand binding; rat brain membranes; 500 nM, pH 7.5, 25 °C, added: 2 nM [3H]DPDPE).
With `CS(C)(=O)=Nc1ccc(-c2ccc(-c3nc4cc(O[C@@H]5CO[C@H]6[C@@H]5OC[C@H]6O)[nH]c4cc3F)cc2)cc1` the inhibition was -16% (Ribosomal protein S6 kinase alpha-4 (RPS6KA4, Homo sapiens, UniProt O75676); enzyme activity, inhibitor; 10 µM).
With `CCn1nc(Cl)c2c1-c1cnc(N)c(c1)O[C@H](C)c1cc(F)ccc1-c1nn(C)cc1C2` the selectivity ratio was 280 fold (Mitogen-activated protein kinase kinase kinase kinase 5 (MAP4K5, Homo sapiens, UniProt Q9Y4K4); kinase activity, inhibitor; baseline: IC50 MAP4K5 over IC50 ALK).
The inhibition of `CN[C@@H]1[C@H](O)[C@H](NC)[C@H]2O[C@]3(O)[C@H](O[C@@H]2[C@H]1O)O[C@H](C)C[C@H]3NC(=O)Cc1cc(Cl)ccn1` is reported as 5% (Muscarinic acetylcholine receptor M2 (CHRM2, Homo sapiens, UniProt P08172); ligand displacement, radioligand; 10 µM).
`C=C(c1ccccc1)[C@H](N)P(=O)(O)O` — result for “reaction rate reduction”: 69% (PAL1 (Petroselinum crispum, UniProt P24481); L-Phe deamination, inhibitor, UV steady-state kinetics; 100 µM, added: L-Phe 5 mM).
`CC(C)CC(O)(CC(C)C)c1cn(C(=O)N2CCCC2)nn1`: “SILAC activity ratio” 1.25 and 1.21 and 1.31 and 1.26 and 1.22 and 1.32 and 1.2 and 1.18 (Fatty-acid amide hydrolase 1 (Faah, Mus musculus, UniProt O08914); probe labelling, inhibitor, competitive ABPP-SILAC; mouse T cells; concentration not given, 4 h, single peptide; baseline: treated over DMSO cells, lower = stronger inhibition).
